# Measured values from different studies.
# Compare with care: the assays were run in different laboratories. Several values in a cell are separate wells, animals, samples, runs or records. ± gives the spread as reported.
# MST1R: Macrophage-stimulating protein receptor (MST1R, Homo sapiens, UniProt Q04912)
# UniProt Q04912, sequence (whole entry, looked up): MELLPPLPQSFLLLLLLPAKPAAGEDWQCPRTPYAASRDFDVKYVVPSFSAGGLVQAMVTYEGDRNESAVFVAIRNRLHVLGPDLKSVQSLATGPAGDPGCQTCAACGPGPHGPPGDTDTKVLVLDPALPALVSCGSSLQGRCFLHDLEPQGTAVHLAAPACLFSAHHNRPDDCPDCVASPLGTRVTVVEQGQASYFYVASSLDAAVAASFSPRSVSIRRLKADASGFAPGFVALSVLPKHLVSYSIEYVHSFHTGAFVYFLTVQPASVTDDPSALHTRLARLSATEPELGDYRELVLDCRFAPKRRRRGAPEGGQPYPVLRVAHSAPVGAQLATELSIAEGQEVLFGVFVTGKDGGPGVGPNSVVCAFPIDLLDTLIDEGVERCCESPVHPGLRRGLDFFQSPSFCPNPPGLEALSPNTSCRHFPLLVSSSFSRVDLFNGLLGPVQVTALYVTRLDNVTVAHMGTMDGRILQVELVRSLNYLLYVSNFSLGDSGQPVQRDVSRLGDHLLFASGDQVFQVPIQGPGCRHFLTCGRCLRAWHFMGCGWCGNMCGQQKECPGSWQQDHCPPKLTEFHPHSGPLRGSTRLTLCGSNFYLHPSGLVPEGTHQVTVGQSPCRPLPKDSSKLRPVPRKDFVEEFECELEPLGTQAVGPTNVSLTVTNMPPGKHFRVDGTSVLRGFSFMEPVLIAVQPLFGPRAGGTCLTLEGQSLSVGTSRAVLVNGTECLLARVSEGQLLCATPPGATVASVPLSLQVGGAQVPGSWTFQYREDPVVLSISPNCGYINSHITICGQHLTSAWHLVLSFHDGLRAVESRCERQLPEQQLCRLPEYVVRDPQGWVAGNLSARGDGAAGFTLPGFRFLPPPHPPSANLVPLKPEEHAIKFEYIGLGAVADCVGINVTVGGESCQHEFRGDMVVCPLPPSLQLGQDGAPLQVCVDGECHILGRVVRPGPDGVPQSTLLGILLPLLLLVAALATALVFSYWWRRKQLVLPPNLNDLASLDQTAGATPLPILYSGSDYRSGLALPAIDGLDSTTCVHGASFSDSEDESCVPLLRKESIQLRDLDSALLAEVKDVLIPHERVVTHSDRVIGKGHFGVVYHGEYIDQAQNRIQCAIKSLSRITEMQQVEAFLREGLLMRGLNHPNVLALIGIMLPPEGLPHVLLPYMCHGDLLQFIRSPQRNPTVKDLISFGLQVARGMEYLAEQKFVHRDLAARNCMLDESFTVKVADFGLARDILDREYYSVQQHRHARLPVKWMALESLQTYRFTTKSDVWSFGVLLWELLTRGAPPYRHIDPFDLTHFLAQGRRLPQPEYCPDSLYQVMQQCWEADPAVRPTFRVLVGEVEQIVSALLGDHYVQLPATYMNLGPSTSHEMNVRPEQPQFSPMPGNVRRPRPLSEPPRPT
# HRH2: Histamine H2 receptor (HRH2, Homo sapiens, UniProt P25021)
# UniProt Q00987, sequence (whole entry, looked up): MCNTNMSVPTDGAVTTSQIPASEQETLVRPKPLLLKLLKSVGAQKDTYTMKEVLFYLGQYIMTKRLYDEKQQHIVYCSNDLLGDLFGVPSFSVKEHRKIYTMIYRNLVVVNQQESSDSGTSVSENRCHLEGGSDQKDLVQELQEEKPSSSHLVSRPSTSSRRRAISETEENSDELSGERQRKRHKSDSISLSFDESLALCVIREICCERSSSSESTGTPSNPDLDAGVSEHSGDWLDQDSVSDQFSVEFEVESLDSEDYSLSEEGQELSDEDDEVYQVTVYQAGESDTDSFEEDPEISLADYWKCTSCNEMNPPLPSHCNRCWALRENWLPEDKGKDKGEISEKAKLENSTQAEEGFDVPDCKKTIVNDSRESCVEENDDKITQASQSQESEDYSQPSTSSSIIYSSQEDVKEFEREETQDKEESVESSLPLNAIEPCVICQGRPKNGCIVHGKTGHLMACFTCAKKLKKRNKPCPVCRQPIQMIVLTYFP
# UniProt Q007T0, sequence (whole entry, looked up): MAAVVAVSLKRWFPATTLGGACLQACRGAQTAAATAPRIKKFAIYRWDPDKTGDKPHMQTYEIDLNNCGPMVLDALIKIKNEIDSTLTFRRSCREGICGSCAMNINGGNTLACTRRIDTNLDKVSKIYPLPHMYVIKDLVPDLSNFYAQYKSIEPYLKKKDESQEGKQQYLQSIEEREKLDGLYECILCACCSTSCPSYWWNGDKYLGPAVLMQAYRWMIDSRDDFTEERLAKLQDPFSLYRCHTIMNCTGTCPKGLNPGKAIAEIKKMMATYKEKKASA
# UniProt A5GZW8, sequence (whole entry, looked up): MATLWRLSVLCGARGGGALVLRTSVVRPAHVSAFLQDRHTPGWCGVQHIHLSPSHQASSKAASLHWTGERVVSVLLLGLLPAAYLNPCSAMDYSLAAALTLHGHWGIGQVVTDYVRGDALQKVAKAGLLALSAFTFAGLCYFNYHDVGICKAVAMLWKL
# UniProt Q9EPB5, sequence (whole entry, looked up): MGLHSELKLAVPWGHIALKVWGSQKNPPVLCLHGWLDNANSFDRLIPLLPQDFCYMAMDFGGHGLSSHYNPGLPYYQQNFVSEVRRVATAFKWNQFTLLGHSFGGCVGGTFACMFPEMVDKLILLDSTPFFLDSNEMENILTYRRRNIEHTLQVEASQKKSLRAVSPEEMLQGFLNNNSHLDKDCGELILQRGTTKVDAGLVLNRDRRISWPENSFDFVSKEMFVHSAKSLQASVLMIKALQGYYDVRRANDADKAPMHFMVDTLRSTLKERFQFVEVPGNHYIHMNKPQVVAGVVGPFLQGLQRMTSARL
# UniProt Q80YA3, sequence (whole entry, looked up): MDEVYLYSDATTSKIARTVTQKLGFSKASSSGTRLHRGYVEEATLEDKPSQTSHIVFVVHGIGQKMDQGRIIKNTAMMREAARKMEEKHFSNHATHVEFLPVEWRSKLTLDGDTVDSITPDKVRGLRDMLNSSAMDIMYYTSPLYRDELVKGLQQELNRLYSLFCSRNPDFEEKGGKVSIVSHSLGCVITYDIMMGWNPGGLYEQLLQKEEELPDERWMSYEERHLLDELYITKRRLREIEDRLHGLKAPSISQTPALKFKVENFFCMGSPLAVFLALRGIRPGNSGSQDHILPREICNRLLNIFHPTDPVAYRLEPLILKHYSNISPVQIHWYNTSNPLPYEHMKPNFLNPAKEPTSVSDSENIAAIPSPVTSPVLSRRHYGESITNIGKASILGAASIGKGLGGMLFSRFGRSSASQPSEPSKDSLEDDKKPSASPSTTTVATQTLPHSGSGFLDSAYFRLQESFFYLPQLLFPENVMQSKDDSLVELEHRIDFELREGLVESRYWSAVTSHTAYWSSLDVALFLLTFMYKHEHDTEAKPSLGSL
# UniProt D0VWV4, sequence (whole entry, looked up): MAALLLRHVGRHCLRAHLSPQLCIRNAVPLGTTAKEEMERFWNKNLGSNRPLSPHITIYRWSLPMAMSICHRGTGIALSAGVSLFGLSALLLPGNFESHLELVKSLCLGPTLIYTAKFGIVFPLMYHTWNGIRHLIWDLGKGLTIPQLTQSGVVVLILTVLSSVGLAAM
# UniProt P25021, sequence (whole entry, looked up): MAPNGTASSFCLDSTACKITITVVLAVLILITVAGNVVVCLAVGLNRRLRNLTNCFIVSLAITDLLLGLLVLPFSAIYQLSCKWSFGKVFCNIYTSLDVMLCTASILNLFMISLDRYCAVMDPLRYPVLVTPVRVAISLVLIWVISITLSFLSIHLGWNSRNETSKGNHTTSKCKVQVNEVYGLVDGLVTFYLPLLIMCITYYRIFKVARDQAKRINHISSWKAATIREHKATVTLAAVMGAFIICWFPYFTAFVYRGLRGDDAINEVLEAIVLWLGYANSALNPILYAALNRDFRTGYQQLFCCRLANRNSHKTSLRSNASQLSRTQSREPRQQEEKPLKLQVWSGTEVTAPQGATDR
# UniProt Q6DWJ6, sequence (whole entry, looked up): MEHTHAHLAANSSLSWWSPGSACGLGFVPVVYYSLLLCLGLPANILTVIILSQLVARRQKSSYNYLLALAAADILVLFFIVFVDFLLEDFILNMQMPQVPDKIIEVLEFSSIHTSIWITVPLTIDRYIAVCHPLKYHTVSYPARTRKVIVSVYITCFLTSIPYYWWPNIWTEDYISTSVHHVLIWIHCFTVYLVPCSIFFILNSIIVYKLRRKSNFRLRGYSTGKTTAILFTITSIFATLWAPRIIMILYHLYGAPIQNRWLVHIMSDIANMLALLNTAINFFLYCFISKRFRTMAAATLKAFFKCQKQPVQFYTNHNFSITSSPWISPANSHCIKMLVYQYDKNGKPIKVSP
# UniProt Q9UM07, sequence (whole entry, looked up): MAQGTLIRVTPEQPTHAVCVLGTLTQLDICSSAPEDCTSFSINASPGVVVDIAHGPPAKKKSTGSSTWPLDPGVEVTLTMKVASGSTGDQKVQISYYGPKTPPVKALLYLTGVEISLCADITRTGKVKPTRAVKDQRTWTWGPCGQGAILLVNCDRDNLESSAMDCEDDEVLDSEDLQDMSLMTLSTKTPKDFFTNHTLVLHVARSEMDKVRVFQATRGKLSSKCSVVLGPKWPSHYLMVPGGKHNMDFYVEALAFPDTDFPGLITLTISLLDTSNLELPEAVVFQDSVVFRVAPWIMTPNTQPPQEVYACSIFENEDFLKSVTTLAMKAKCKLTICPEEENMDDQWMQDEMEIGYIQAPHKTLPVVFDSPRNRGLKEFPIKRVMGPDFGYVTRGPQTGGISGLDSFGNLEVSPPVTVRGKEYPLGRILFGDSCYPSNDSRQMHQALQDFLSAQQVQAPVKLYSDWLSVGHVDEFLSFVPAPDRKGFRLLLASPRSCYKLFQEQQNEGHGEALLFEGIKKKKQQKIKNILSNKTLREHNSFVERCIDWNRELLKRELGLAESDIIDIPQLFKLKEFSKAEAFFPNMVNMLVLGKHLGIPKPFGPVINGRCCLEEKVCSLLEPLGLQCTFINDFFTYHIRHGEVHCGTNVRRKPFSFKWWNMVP
Structure (SMILES),target,test,system,conditions,how to read,measurement,result
Cc1cc(=O)oc2cc(OCCCCCC[Se]C#N)ccc12,"CA12 (Homo sapiens, UniProt O43570)",stopped-flow CO2 hydration,,,relative to: Ki CA II over Ki CA XII,selectivity ratio,> 1290
CN(C)[C@H]1C[C@@]23CC[C@@]4(O2)C(=CC[C@]2(C)[C@@H](c5ccc6ccncc6c5)CC[C@H]24)C=C3[C@@H](O)[C@@H]1O,"MAPK1 (Homo sapiens, UniProt P28482)","ATP probe labelling, inhibitor, KiNativ profiling",,0.1 µM,,inhibition,8.6%
O=C1NC(=O)c2c1c1cc(F)c[n+]3c1c1c2c2cc(O)ccc2[n]1[Ru-4]312([N]=C=S)[S+]3CC[S+]1CC[S+]2CC3 (centres unmarked),"MAP3K7 (Homo sapiens, UniProt O43318)",enzyme activity,,"100 nM, human enzyme, added: 10 µM ATP",relative to: untreated,remaining activity,104%
CC[C@H](C)[C@H](NC(=O)[C@H](CO)NC(=O)[C@H](CO)NC(=O)[C@H](CCC(=O)O)NC(=O)[C@H](CCC(=O)O)NC(=O)[C@H](CCCCN)NC(=O)[C@H](CO)NC(=O)[C@@H](NC(=O)[C@H](CO)NC(=O)[C@H](CC(C)C)NC(=O)[C@H](Cc1ccccc1)NC(=O)[C@H](CCCNC(=N)N)NC(=O)[C@H](C)NC(=O)[C@H](Cc1ccccc1)NC(=O)[C@H](Cc1ccccc1)NC(=O)[C@@H]1CCCN1C(=O)[C@H](CC(C)C)NC(=O)[C@H](C)NC(=O)[C@H](CCCCN)NC(=O)CNC(=O)[C@H](CCC(N)=O)NC(=O)[C@H](CCC(N)=O)NC(=O)[C@H](CC(=O)O)NC(=O)[C@H](CC(N)=O)NC(=O)[C@@H]1CCCN1C(=O)[C@H](Cc1ccc(O)cc1)NC(=O)[C@H](C)NC(=O)[C@@H](N)CCSC)C(C)C)C(=O)N[C@@H](CCCCN)C(=O)N[C@@H](CO)C(=O)N1CCC[C@H]1C(=O)N[C@@H](CO)C(=O)N1CCC[C@H]1C(=O)N[C@@H](CC(=O)O)C(=O)N[C@@H](Cc1c[nH]cn1)C(=O)N[C@@H](CCC(=O)O)C(=O)N[C@H](C(=O)N[C@@H](CO)C(=O)N[C@H](C(=O)N[C@@H](CCCNC(=N)N)C(=O)N[C@@H](CCCCN)C(=O)N[C@@H](Cc1ccc(O)cc1)C(=O)N1CCC[C@H]1C(=O)N[C@@H](CO)C(=O)N[C@@H](CC(=O)O)C(=O)N[C@@H](Cc1c[nH]c2ccccc12)C(=O)N[C@@H](CCC(=O)O)C(=O)N[C@@H](CCC(=O)O)C(=O)N[C@@H](Cc1c[nH]c2ccccc12)C(=O)O)[C@@H](C)O)[C@@H](C)CC,"uncharacterized protein (Microcystis aeruginosa MRC, UniProt B2G3D0, D281A)",ITC,Microcystis aeruginosa,"concentration not given, pH 8.0, 25 °C",,binding stoichiometry,0.71 ± 0.01
CS(C)(=O)=Nc1ccc(-c2ccc(-c3nc4cc(O[C@@H]5CO[C@H]6[C@@H]5OC[C@H]6O)[nH]c4cc3F)cc2)cc1,MST1R,"enzyme activity, inhibitor",,10 µM,,inhibition,11%
C[C@H](NCc1ccc(-c2ccc(C(F)(F)F)cc2)cc1)C(N)=O,"MAP3K4 (Homo sapiens, UniProt Q9Y6R4)","cell-free assay, competition with immobilised ligand",,1 µM,,inhibition,1%
NCC(=O)N[C@H](Cc1ccccc1)C(=O)N[C@@H](Cc1ccccc1)C(=O)N[C@@H](CC(N)=O)C(=O)O,"uncharacterized protein (Aplysia californica, UniProt A0ABM0K1K5)",IP1 accumulation,CHO-K1 transfected,,,fold loss of potency,> 30 fold
C/C(=N\OCCCN1CCCCC1)c1ccc(C(F)(F)F)cc1,HRH2,"agonist, cAMP",,10 µM,,activation,-2.72%
CC(C)CC(O)(CC(C)C)c1cn(C(=O)N2CCCC2)nn1,"Phospholipase DDHD1 (Ddhd1, Mus musculus, UniProt Q80YA3)","probe labelling, inhibitor, refers to: Ddhd1","mouse, brain","i.p., 0.8 mg/kg, 4 h, single peptide","relative to: treated over vehicle mice, lower = stronger inhibition",activity ratio-of-ratios,1.01 and 1.17 and 1.48 and 1.27 and 1.35
CC(C)[C@H]1NC(=O)C[C@H]2/C=C/CCSSC[C@@H](NC1=O)C(=O)N[C@H](Cc1cccc3ccccc13)C(=O)NCC(=O)O2,MST1R,"enzyme activity, inhibitor",,10 µM,,inhibition,12.7%
C=CC(=O)NC[C@H](NC(=O)[C@H](CC1CCCCC1)NC(=O)[C@H](CCC(N)=O)NC(C)=O)C(=O)N[C@@H](CC(C)C)C(=O)N[C@@H](Cc1ccccc1)C(=O)O,"Beta sliding clamp (Escherichia coli, UniProt P0A988)","binding, isothermal titration calorimetry",,"pH 7.4, 37 °C",,-TΔS,6.9 kcal/mol
CCOC(=O)[C@@H]1Cc2c(cc([N+](=O)[O-])cc2[N+](=O)[O-])[C@H](O)[C@]12C(=O)Nc1ccc(Br)cc12,"Tyrosine-protein kinase ABL1, non-phosphorylated (ABL1, Homo sapiens, UniProt P00519)","binding, competition with immobilised ligand",,0.1 µM,,remaining binding,74%
CC[C@H](C)[C@@H]1NC(=O)[C@H](CC(C)C)NC(=O)CNC(=O)[C@H](CCCNC(=N)N)NC(=O)[C@H](Cc2c[nH]c3ccccc23)NC(=O)[C@H](CCSC)NC(=O)[C@H](CO)NC(=O)[C@H](CCC(=O)O)NC(=O)[C@H](Cc2ccccc2)NC(=O)[C@H](CC(=O)O)NC(=O)[C@H]([C@@H](C)O)NC(=O)CNC(=O)[C@H](CCC(=O)O)NC(=O)[C@H]([C@@H](C)O)NC(=O)CNC(=O)[C@H](CC(=O)O)NC1=O,"MDM2 (Homo sapiens, UniProt Q00987)","MDM2-ligand binding, inhibitor, AlphaLISA competition",,"0.09766 µM, added: GST-tagged MDM2 ligand",lower = stronger inhibition,AlphaLISA signal,9140 a.u. and 9320 a.u. and 9720 a.u.
O=C(CN1CN(c2ccccc2)C2(CCN(C(=O)c3cnc4[nH]ncc4c3)CC2)C1=O)NCC(F)(F)F,"BMPR2 (Homo sapiens, UniProt Q13873)",inhibitor,,concentration not given,,inhibition,< 50%
COc1cc2c3cc1Oc1cc(ccc1O)CC1c4c(cc(OC)c(O)c4Oc4ccc(cc4)CC3N(C)CC2)CCN1C (centres unmarked),"Glideosome-associated protein 50 (GAP50, Plasmodium falciparum, UniProt Q8I2X3)",surface plasmon resonance,,,,kon,159 M⁻¹ s⁻¹
C#CCCCCOc1ccc2c(c1)CCCN2C(=O)CCl,"Phosphatidylserine lipase ABHD16A (Homo sapiens, UniProt O95870)","mass spectrometry profiling, refers to: ABHD16A",H460 cell lysate,"100 µM over 10 µM, UniProt O95870",relative to: high over low concentration,reactivity ratio,1.41
Cc1cc(-c2ccc3ccccc3c2)nnc1NCCN1CCN(C)CC1,HRH2,antagonist,,10000 nM,relative to: control,activity,0%
C[C@]1(COC(=O)c2ccccc2O)[C@H](C(=O)O)N2C(=O)/C(=C/c3ccccn3)[C@H]2S1(=O)=O,"Beta-lactamase (blaOXA-33, Acinetobacter baumannii, UniProt Q8RLA6)",inhibitor,,,,kinact,0.027 ± 0.002 s⁻¹
COc1ccccc1-c1n[nH]c2nc(NC3CCN(C(=O)Cc4ccc(F)cc4F)CC3)ncc12,"cdc2-related kinase 12 (Leishmania donovani, UniProt A0A3S7WQK2)","competition bead pull-down, refers to: LINJ.09.0270",Leishmania donovani extract,10 µM,relative to: vehicle,remaining binding,24%
COCC1CCCCN1C(=O)n1cc(C(O)(c2ccccc2)c2ccccc2)nn1 (centres unmarked),"Serine hydrolase-like protein (Serhl, Mus musculus, UniProt Q9EPB5)","probe labelling, inhibitor, competitive ABPP-SILAC, refers to: Serhl",mouse T cells,"concentration not given, 4 h, in situ, single peptide","relative to: treated over DMSO, lower = more inhibition",SILAC ratio,1.42 and 1.94 and 1.36 and 1.56 and 1.47 and 1.46 and 1.12 and 1.48
N[C@H](C(=O)N1CCCC1)C1CCN(c2nccc3c(-c4ncc(Cl)cc4Cl)cccc23)CC1,"PADI4 (Homo sapiens, UniProt Q9UM07)",enzyme activity,,"0.01573 µM, high-affinity site, added: Ca2+ 1.5 mM",,kcat,2.07 s⁻¹ and 2.09 s⁻¹
CC[C@H](C)[C@H](NC(=O)[C@H](CCCNC(=N)N)NC(=O)[C@H](CCCNC(=N)N)NC(=O)[C@H](CC(C)C)NC(=O)[C@H](Cc1ccccc1)NC(=O)CNC(=O)CNC(=O)[C@@H](N)Cc1ccc(O)cc1)C(=O)N[C@@H](CCCNC(=N)N)C(=O)N1CCC[C@H]1C(=O)N[C@@H](CCCCN)C(=O)N[C@@H](CC(C)C)C(=O)N[C@@H](CCCCN)C(=O)O,"GPR139 (Homo sapiens, UniProt Q6DWJ6)","Gαi2 activation, agonist, BRET",HEK293T/17,40 µM,,Emax,75.1% and 82%
CON(C(=O)c1cn(C)nc1C(F)F)C(C)Cc1c(Cl)cc(Cl)cc1Cl (centres unmarked),"SDHD/SDHC/SDHB (Sus scrofa, UniProt A5GZW8+D0VWV4+Q007T0)","enzyme activity, inhibitor, DCIP reduction",pig,"0.1 µM, added: DCIP 120 µM",,reaction velocity,0.0201 µM/s and 0.02 µM/s and 0.0211 µM/s

# Repeated from above:
Structure (SMILES),target,test,system,conditions,how to read,measurement,result
COc1ccccc1-c1n[nH]c2nc(NC3CCN(C(=O)Cc4ccc(F)cc4F)CC3)ncc12,"cdc2-related kinase 12 (Leishmania donovani, UniProt A0A3S7WQK2)","competition bead pull-down, refers to: LINJ.09.0270",Leishmania donovani extract,10 µM,relative to: vehicle,remaining binding,24%
COc1cc2c3cc1Oc1cc(ccc1O)CC1c4c(cc(OC)c(O)c4Oc4ccc(cc4)CC3N(C)CC2)CCN1C (centres unmarked),"Glideosome-associated protein 50 (GAP50, Plasmodium falciparum, UniProt Q8I2X3)",surface plasmon resonance,,,,kon,159 M⁻¹ s⁻¹
